Measurements gathered from unrelated publications.
Each numbered part is a random draw from the data of one study; scales do not carry over between parts.

Series 1
Target: Sal-like protein 4, full length isoform B (SALL4, Homo sapiens, UniProt Q9UJQ4-2, residues 1-616)
Technique: universal PBM
Molecule type: double-stranded DNA, one strand shown
Medium: in vitro
Concentration: not given
Notes: 8-mer, flanks averaged, mean of replicates
Direction: higher = stronger binding
Measurement: E-score
CACTTCCG: -0.127
CCTTTCGA: -0.0508
ACTCAAAC: 0.0892
AAGGTAGC: -0.168
ACTTCTAC: 0.127
ACGACTAA: -0.0933
CAATCTTA: 0.214
CAGTCTCC: -0.187
GCCCGGCC: -0.395
GAAAAAGC: -0.0275
ACCAATGG: -0.129
CGACACCC: -0.214
CACCAGGG: -0.231
AATATGTC: 0.334
CTCCCGGC: -0.344
GCCTGGGA: -0.326
GGCTGCAA: -0.0991
CCATCCCG: -0.276

Series 2
Target: Fragile X messenger ribonucleoprotein 1, C-terminal low-complexity region (Fmr1, Mus musculus, UniProt P35922)
Technique: RNA Bind-n-Seq
Molecule type: RNA
Medium: in vitro
Concentration: 200 nM
Notes: whole 134-nt RNA, ends assumed
With: 150 mM LiCl
Baseline: input library
Direction: higher = stronger binding
Measurement: log2 enrichment
Library: 7-deaza-guanosine replaces G
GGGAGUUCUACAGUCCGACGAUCAAGUCCUGUGCUACACAUCGUAUGUACCGAAUCGGAAAAAGGAAAAAAAGGAAAGGAAAGUAUUAUGUUACGCCGUUCGGAUCUGCACUUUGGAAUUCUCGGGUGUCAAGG: -1.55
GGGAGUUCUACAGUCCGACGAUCAGUCCUGUGCUACACAUCGUAUGUACCGAAUCGGGGUGGGGAAAGGGGAAAAAGGGGAAAGUAUUAUGUUACGCCGUUCGGAUCUGCACUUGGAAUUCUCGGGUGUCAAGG: 0.124
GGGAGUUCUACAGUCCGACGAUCUCCUCAAGUCCUGUGCUACACAUCGUAUGUACCGAAUCGGUGGGUGGGUGGAAAGUAUUAUGUUACGCCGUUCGGAUCUGCACUUCCAGCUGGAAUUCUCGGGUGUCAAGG: 0.794
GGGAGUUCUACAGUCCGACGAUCUUCCUCAAGUCCUGUGCUACACAUCGUAUGUACCGAAUCGGCGGCGGCGGGAAAGUAUUAUGUUACGCCGUUCGGAUCUGCACUUCCAGCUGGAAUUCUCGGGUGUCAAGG: 1.37
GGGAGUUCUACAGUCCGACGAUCCCUGUGCUACACAUCGUAUGUACCGAAUCGGGUUUUUUUGGGAAAAAAAGGGUUUUUGGGAAAGUAUUAUGUUACGCCGUUCGGAUCUGCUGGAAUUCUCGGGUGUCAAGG: -2.84
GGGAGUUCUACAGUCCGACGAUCCCUGUGCUACACAUCGUAUGUACCGAAUCGGGGUUUUUGGGGAAAAAGGGGAAAAAGGGGAAAGUAUUAUGUUACGCCGUUCGGAUCUGCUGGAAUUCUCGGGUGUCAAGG: -0.58
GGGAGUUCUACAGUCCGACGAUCUGGCCCUGGUAGCAUGCGGGGAGGAAGAGGUGGCCUCAUGGAUCGUGGUGGUCCCGGUGGAAUGUUCAGAGGUGGCCGUGGUGGAGACAGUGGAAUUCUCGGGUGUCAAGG: -0.224
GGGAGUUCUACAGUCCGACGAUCCAAGUCCUGUGCUACACAUCGUAUGUACCGAAUCGGAAAAAAAGGAGGUUUUUGGAAAGUAUUAUGUUACGCCGUUCGGAUCUGCACUUCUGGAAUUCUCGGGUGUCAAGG: -1.62
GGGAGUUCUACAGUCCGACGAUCCCUCAAGUCCUGUGCUACACAUCGUAUGUACCGAAUCGGGGUGGGUGGGUGGGAAAGUAUUAUGUUACGCCGUUCGGAUCUGCACUUCCAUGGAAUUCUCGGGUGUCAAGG: 1.12
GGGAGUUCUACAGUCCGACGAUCGUCCUGUGCUACACAUCGUAUGUACCGAAUCAAACCCCCAAACCCAAAUUUUUUUAAAAAAGUAUUAUGUUACGCCGUUCGGAUCUGCACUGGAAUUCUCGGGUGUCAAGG: 1.43
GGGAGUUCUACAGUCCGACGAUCUCCUGUGCUACACAUCGUAUGUACCGAAUCGGGAAAGGGAAAAAAAGGGAAAAAAAGGGAAAGUAUUAUGUUACGCCGUUCGGAUCUGCAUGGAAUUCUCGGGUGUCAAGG: 0.653

Series 3
Target: RNA binding protein fox-1 homolog 2, RRM domain, GST-SBP tag (RBFOX2, Homo sapiens, UniProt O43251-10, residues 100-194)
Technique: RNA Bind-n-Seq
Molecule type: RNA
Medium: in vitro
Concentration: 365 nM
Notes: natural RNA segment, single round, ends assumed
Baseline: no-protein control
Direction: higher = stronger binding
Measurement: RBNS enrichment (R)
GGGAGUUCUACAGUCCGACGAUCCACACAGUGAGAUGCACUCAAAGGACCACGUGUUAUCUGGUAAUCCAAAUUGGUUCCCCUGCUCCCCCCCUCCAACCUCUCAAAGACAGAAUGUGUCUCAGAGAUUUCCUUGGAAUUCUCGGGUGCCAA: 1.91
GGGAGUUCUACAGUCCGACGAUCUCACUCUGUAGACCAGGCUGGCCUUGAACUCAGAAAUCUGCCUGCCUUUGCCUCCCAAGUGCUGGGACUAAAGGUGUGUGCCACCACUGUCCAGCUUGUGACCAGCCUUUUGGAAUUCUCGGGUGCCAA: 0.817
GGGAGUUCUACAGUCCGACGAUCCACUGCCUUAAAAUGAUACUUAUUUCCUUAAAAAAGAAAAUAAAAUAAGAGAUAUCAGUCAGAAUUGCAGAUUUUUAACAGUGGUCAUUAUUAAAGCUGUGUUAUUUUCCUGGAAUUCUCGGGUGCCAA: 0.492
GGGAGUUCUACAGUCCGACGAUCCCAUGAAUGAUUCUAUGAAGCUAUGCAUCUUAGACCUCUUGAGCUGUGAAUUAGCACUAUUUUCUAUAGUUACUUAUUCUCUGGAUCAUUUUAUAAUUUCCAUAUUAAUUUGGAAUUCUCGGGUGCCAA: 3.25
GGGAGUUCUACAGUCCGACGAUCUAGCUAAUAAUGGAUUUAAGUGUUUGGAUAAUUGUAGAUGCAUUUACUUUGAUAAAGCGUGUGCUUAAAGUGGUAUCACCAGUGAUUUCUAACAUGAUUUUAAAAAAAUAUGGAAUUCUCGGGUGCCAA: 0.846
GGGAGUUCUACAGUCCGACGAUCUCAGAACAGAGGCUUUUUGUUUUUUGUUUUUUUGUUUUUGUUUUUAUUAUUAUGUUAUCAGUAAUCACUGGCAAAAAAAAAAAAAACAAUGGCCAGGUACUACACUGUCGUGGAAUUCUCGGGUGCCAA: 0.436
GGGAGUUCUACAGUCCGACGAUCGAUUCUCGACCUUCCCCCGGCCCGGGAGGUGCAGCCUGCGUCUGCCUCUGUCGUGUGUGCUGAUUUGAGUGGCUUAGCUUGCCACAGCGCAGCCUCUUCUGUCCCUUUCAUGGAAUUCUCGGGUGCCAA: 0.382
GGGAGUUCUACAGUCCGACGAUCGGCCAGAAAUACAAGGUUGAUGAGUAAGCUAUCUGAAGACUUUUAUAAUGCCUACCUUCAAAACCAGAAUCGGCAGCACUCUACAAAUGAAAGUGCCUGUGUCUCACACCUGGAAUUCUCGGGUGCCAA: 0.631
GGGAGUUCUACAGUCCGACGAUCUCCUCCAGCCCUUCAGACGAGAUCCUGUUUCAGCUAAAUGCAGGGAAACUCAAUGUUUUUUUAAGUUUUGUUUUCCCUUUAAAGCCUUUUUUUAGGCCACAUUGACAGUGUGGAAUUCUCGGGUGCCAA: 0.393
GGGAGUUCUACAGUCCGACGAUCCUAGGUGCUGCCUUUCUAAGUUCUGACGAGGAGCAGCCCUCAGUGGCUUGUGUACAGAUUGCUCUAUCCCAGAAGCAAGCCUUGGUUUGUUGAAGAGCUUUUCAUGUAUAUGGAAUUCUCGGGUGCCAA: 0.369
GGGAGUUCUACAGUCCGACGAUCGUCUUAAGAAGCUUUUUCCCCAUAGUGCCUAUAGUUUCCAAAGAAACUCAACUUCCUAACUGUGUUAACUUAAUUUUAUUAGAACACUACAGUUGAGUGAGAACGUGCAGUGGAAUUCUCGGGUGCCAA: 0.399
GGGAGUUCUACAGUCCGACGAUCUGCUAAUAGUAAGUUCUUUGUGCACCUUCCACCACUUCUGAGCCACUACUAUUCAAGUAGAGAUUUGCCCCAACACAUUAACUUUUUCCUUGGAGAUUUAUAUGGUCCUGUGGAAUUCUCGGGUGCCAA: 0.422

Series 4
Target: Histone acetyltransferase KAT6A, winged helix 2, GST fusion (KAT6A, Homo sapiens, UniProt Q92794, residues 85-181)
Technique: protein binding microarray
Molecule type: double-stranded DNA, one strand shown
Medium: in vitro
Concentration: not given
Notes: 8-mer, flanks averaged, mean of 2 arrays, mostly near background
Baseline: not given
Direction: higher = stronger binding
Measurement: E-score
Construct (chain): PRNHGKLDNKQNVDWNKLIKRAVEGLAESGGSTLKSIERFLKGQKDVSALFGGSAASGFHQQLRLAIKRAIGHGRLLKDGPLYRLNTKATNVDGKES
CGTTCCCC: 0.000765
CGCAGCAA: 0.0807
GCTTAAAC: -0.0762
AGCGGATA: 0.106
AGTTGCTG: 0.0319
ACGCATAC: 0.0298
AGATGACT: -0.303
ATATACAT: -0.0822
TCCGACCA: -0.0192
CAGTGCAC: -0.0258
AATTCTAA: 0.124
CATGAACC: -0.132
CGGCCGAG: 0.129
GGATGTTA: -0.0365
GACACTGC: 0.126
GGAGGACA: 0.0404
AGTGTAAC: 0.00274
CTGTTACC: -0.17

A few entries again (series 3):
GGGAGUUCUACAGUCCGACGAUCCACUGCCUUAAAAUGAUACUUAUUUCCUUAAAAAAGAAAAUAAAAUAAGAGAUAUCAGUCAGAAUUGCAGAUUUUUAACAGUGGUCAUUAUUAAAGCUGUGUUAUUUUCCUGGAAUUCUCGGGUGCCAA: 0.492
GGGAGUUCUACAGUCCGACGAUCCCAUGAAUGAUUCUAUGAAGCUAUGCAUCUUAGACCUCUUGAGCUGUGAAUUAGCACUAUUUUCUAUAGUUACUUAUUCUCUGGAUCAUUUUAUAAUUUCCAUAUUAAUUUGGAAUUCUCGGGUGCCAA: 3.25
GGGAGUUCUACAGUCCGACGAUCUAGCUAAUAAUGGAUUUAAGUGUUUGGAUAAUUGUAGAUGCAUUUACUUUGAUAAAGCGUGUGCUUAAAGUGGUAUCACCAGUGAUUUCUAACAUGAUUUUAAAAAAAUAUGGAAUUCUCGGGUGCCAA: 0.846
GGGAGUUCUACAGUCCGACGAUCUCAGAACAGAGGCUUUUUGUUUUUUGUUUUUUUGUUUUUGUUUUUAUUAUUAUGUUAUCAGUAAUCACUGGCAAAAAAAAAAAAAACAAUGGCCAGGUACUACACUGUCGUGGAAUUCUCGGGUGCCAA: 0.436
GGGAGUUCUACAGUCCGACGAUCGAUUCUCGACCUUCCCCCGGCCCGGGAGGUGCAGCCUGCGUCUGCCUCUGUCGUGUGUGCUGAUUUGAGUGGCUUAGCUUGCCACAGCGCAGCCUCUUCUGUCCCUUUCAUGGAAUUCUCGGGUGCCAA: 0.382
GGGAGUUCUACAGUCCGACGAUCGGCCAGAAAUACAAGGUUGAUGAGUAAGCUAUCUGAAGACUUUUAUAAUGCCUACCUUCAAAACCAGAAUCGGCAGCACUCUACAAAUGAAAGUGCCUGUGUCUCACACCUGGAAUUCUCGGGUGCCAA: 0.631
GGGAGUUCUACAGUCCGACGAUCUCCUCCAGCCCUUCAGACGAGAUCCUGUUUCAGCUAAAUGCAGGGAAACUCAAUGUUUUUUUAAGUUUUGUUUUCCCUUUAAAGCCUUUUUUUAGGCCACAUUGACAGUGUGGAAUUCUCGGGUGCCAA: 0.393
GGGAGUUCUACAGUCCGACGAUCCUAGGUGCUGCCUUUCUAAGUUCUGACGAGGAGCAGCCCUCAGUGGCUUGUGUACAGAUUGCUCUAUCCCAGAAGCAAGCCUUGGUUUGUUGAAGAGCUUUUCAUGUAUAUGGAAUUCUCGGGUGCCAA: 0.369
